Assay results pooled from the literature.
Each line is one published result; not all experiments were run side by side.

| Structure (SMILES) | assay | test system | setting | endpoint | result |
| --- | --- | --- | --- | --- | --- |
| Cn1cc(-c2cn3nccc3c(-c3cnn([C@]4(CC#N)C[C@@H](C#N)C4)c3)n2)cn1 | – | human, urine | oral, 100 mg once daily, day 10, dosing interval geometric mean | fraction excreted unchanged in urine | 1.1% |
| CC(C)(Sc1ccncc1-c1ccc(C#N)c2ccccc12)C(=O)O | – | human, urine | oral, 5 mg, with: febuxostat 20 mg | fraction excreted in urine (0-24 h) | 1.39% |
| NCCONC(=O)[C@@H]1CC[C@@H]2CN1C(=O)N2OS(=O)(=O)O | – | human male, urine | intravenous infusion, 2 g single dose | fraction excreted in urine (0-8 h) | 71.5% |
| CN[C@@H]1COc2c(S(=O)(=O)NC(=O)Nc3c4c(cc5c3CCC5)CCC4)cnn2C1 | – | human, urine | oral, 1800 mg, 0-48 h | fraction excreted in urine | 0.137 |
| Cc1cc(-c2nccc3c2ccn3CC(=O)Nc2ccc(-c3cnccn3)cn2)ccn1 | – | human, urine | oral, 15 mg once daily, day 1, geometric mean | fraction excreted in urine (fe) | 1.26% |
| CNC(=O)c1ccc(-c2cnc3ncc(Cc4ccc5ncccc5c4)n3n2)cc1F | ultrafiltration | human normal hepatic function, plasma | oral, 200 mg, 3 h post-dose, mean | fraction unbound | 0.0297 |
| NC[C@@]1(CC(=O)O)[C@@H]2CC[C@H]3C[C@@H]2[C@@H]1C3 | – | human, normal renal function, urine | oral, 20 mg single dose, 0-72 h | fraction excreted in urine | 70% |
| Cl.[2H]C([2H])([2H])CC(=O)c1cnc(NC(=O)C2CC2)cc1Nc1cccc(-c2ncn(C([2H])([2H])[2H])n2)c1OC | – | human, urine | oral, dose not given | fraction excreted unchanged | < 1% |
| CC(C)OC(=O)[C@@H](C)N[P@@](=O)(OC[C@H]1O[C@@H](n2ccc(=O)[nH]c2=O)[C@](C)(Cl)[C@@H]1O)Oc1ccccc1 | – | human, plasma | sponsor value used in model | fraction unbound | 0.577 |
| C=CC(=O)Nc1cc(Nc2ncc(C(=O)OC(C)C)c(-c3cn(C)c4ccccc34)n2)c(OC)cc1N(C)CCN(C)C | – | healthy human, urine | oral, 160 mg single dose, arithmetic mean | fraction of dose excreted | 1.44% |
| C[C@@H](Oc1ccc(S(C)(=O)=O)cc1C(=O)N1C[C@@H]2C[C@]2(c2cc(C(F)(F)F)on2)C1)C(F)(F)F | – | young healthy humans, urine | oral, 75 mg, 0 to 24 h, single dose | fraction excreted in urine | 1.77% |
| O=C(c1nc2n(n1)[C@H](c1ccccc1)C[C@@H]2F)C1CC1 | – | human | 25 mg single dose, mean | fraction excreted in urine 0-72 h | 0.2% |
| CC(C)n1c(C2CCNCC2)nc2c([N+](=O)[O-])c(Br)c(Br)cc21 | – | human, urine | oral, 50 mg, median, single dose | fraction excreted in urine | 0.02 |

Repeated from above:
| Structure (SMILES) | assay | test system | setting | endpoint | result |
| --- | --- | --- | --- | --- | --- |
| Cn1cc(-c2cn3nccc3c(-c3cnn([C@]4(CC#N)C[C@@H](C#N)C4)c3)n2)cn1 | – | human, urine | oral, 100 mg once daily, day 10, dosing interval geometric mean | fraction excreted unchanged in urine | 1.1% |
